{"data": "Experimental data pooled from the literature", "note": "Numbered parts are unrelated; each lists some results of a single study. Substitutions count along the parent as printed."}
{"data": "Series 1", "target": "Protein C-ets-1 (ETS1, Homo sapiens, UniProt P14921, residues 1-441, full length assumed)", "method": "protein-binding microarray", "molecule type": "double-stranded DNA, one strand shown", "medium": "in vitro", "concentration": "not given", "setting": "k-mer, scored over probes, only values ≥0.25", "reading": "higher = stronger binding", "Construct (chain)": "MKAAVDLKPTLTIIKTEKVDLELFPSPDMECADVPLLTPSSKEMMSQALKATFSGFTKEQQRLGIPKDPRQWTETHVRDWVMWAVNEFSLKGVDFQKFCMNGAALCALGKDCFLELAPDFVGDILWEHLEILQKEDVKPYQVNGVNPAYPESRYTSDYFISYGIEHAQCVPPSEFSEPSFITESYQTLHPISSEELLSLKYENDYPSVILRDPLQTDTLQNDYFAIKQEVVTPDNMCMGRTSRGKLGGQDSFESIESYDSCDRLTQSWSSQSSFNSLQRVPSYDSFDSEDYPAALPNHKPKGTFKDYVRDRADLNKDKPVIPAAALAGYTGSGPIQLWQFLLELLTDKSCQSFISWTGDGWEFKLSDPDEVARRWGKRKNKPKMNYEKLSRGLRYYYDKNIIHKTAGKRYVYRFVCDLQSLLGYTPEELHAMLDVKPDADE"}
{"Oligonucleotide": "ATTTCCCC", "E-score": 0.36}
{"Oligonucleotide": "AAGCTTCC", "E-score": 0.376}
{"Oligonucleotide": "ACCCGGAC", "E-score": 0.297}
{"Oligonucleotide": "AGGAAATG", "E-score": 0.45}
{"Oligonucleotide": "CCGGTTCC", "E-score": 0.347}
{"Oligonucleotide": "CGGATCTC", "E-score": 0.35}
{"Oligonucleotide": "CCGGATGC", "E-score": 0.495}
{"Oligonucleotide": "ATATCCTG", "E-score": 0.431}
{"Oligonucleotide": "CATGGGAA", "E-score": 0.292}
{"Oligonucleotide": "AGGAAAAC", "E-score": 0.334}
{"Oligonucleotide": "AACATCCG", "E-score": 0.49}
{"Oligonucleotide": "CCCTTCCC", "E-score": 0.333}
{"Oligonucleotide": "TCAGCGGA", "E-score": 0.374}
{"Oligonucleotide": "CATCCTTC", "E-score": 0.385}
{"Oligonucleotide": "CGGCGTCC", "E-score": 0.298}
{"Oligonucleotide": "ATCCCCCG", "E-score": 0.313}
{"Oligonucleotide": "ACCGGTAG", "E-score": 0.374}
{"data": "Series 2", "target": "ABI1, truncated, D143A, DHFR fusion (Arabidopsis thaliana)", "method": "DHFR PCA, deep sequencing", "medium": "yeast", "setting": "methotrexate growth selection, single substitutions", "added": "(+)-ABA 0.11 µM", "reference": "wild-type fitted maximum", "reading": "higher = stronger binding", "starting sequence": "PYL1, truncated, DHFR fusion (Arabidopsis thaliana); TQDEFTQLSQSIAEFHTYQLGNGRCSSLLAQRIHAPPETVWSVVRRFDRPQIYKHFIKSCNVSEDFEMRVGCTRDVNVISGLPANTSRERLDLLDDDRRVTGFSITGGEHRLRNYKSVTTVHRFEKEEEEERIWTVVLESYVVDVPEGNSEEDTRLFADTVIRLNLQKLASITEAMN; partner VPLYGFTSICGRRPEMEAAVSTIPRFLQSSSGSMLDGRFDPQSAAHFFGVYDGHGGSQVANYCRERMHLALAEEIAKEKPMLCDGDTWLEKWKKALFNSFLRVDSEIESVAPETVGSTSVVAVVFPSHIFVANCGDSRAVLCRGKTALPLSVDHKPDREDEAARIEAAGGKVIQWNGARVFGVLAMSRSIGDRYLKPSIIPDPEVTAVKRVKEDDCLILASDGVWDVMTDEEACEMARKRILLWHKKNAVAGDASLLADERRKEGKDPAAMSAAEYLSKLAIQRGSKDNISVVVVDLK"}
{"Change": "H55C", "relative binding score [%]": 41.7}
{"Change": "H16F", "relative binding score [%]": -8.11}
{"Change": "H34K", "relative binding score [%]": 42.1}
{"Change": "V76T", "relative binding score [%]": -1.65}
{"Change": "S63C", "relative binding score [%]": 25.4}
{"Change": "T73Q", "relative binding score [%]": 12.4}
{"Change": "H110F", "relative binding score [%]": 17}
{"Change": "S63V", "relative binding score [%]": 15.4}
{"Change": "D97G", "relative binding score [%]": 13.1}
{"Change": "I57M", "relative binding score [%]": -2.06}
{"Change": "T73Y", "relative binding score [%]": 61.2}
{"Change": "D48Q", "relative binding score [%]": -8.28}
{"Change": "Q2R", "relative binding score [%]": 29}
{"Change": "K168D", "relative binding score [%]": 10.9}
{"Change": "E129Q", "relative binding score [%]": 27.4}
{"Change": "I172H", "relative binding score [%]": -4.41}
{"data": "Series 3", "target": "RING finger protein unkempt homolog, zinc fingers 1-6, GST-SBP tag (UNK, Homo sapiens, UniProt Q9C0B0, residues 30-357)", "method": "RNA Bind-n-Seq", "molecule type": "RNA", "medium": "in vitro", "concentration": "not given", "setting": "RNA with constant flanks, human-mouse chimeric sites, ends assumed", "reference": "input RNA pool", "reading": "higher = stronger binding", "all sequences stand within": "GGGAGUUCUACAGUCCGACGAUC … CAACAGAGGAUUGAGCAUCA", "chain of UniProt Q9C0B0 (30-357, looked up)": "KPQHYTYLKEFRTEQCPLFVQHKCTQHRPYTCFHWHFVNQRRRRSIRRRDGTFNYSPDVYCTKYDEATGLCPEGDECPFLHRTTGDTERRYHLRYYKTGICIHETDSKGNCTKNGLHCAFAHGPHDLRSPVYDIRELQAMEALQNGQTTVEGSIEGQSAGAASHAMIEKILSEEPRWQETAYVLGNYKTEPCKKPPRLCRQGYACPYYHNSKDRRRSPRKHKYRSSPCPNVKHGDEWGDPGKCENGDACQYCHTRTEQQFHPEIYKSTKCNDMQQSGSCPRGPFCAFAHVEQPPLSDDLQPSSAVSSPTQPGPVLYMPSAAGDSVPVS"}
{"Oligonucleotide": "CUCGGCACUGGUACCCUUUACAUCGCGGAGAGCCGCCUGUCCUGGUUAGAUGGCUCUGGAUUAGGAUUCUCACUGGAAUACCCCACCAUUAGUUUACAUGCGGUGUCCAGGGAUCCAAAC", "bound/input enrichment": "0.824 ratio"}
{"Oligonucleotide": "GCUCCUCUUCCGCACUCAGCCUGGGGACACUGGGCUGGGACCAGAAUCCAGCUUUCUUUUAAAACUCUCAGUGUAACUGUAUCCCGUGACAUUUCAUUUUUUUUAAAUAGUGUAUUUUUU", "bound/input enrichment": "3.93 ratio"}
{"Oligonucleotide": "CAGGGCACAGCACCUACCUCCUCCUUCUUUCCACACCUGCAAACUCUUUUACUUGGGCUGAAUAUUUAGUGUAAUUACAUCUCAGCUUUGAGGGCUCCUGUGGCAAAUUCCCGGAUUAAA", "bound/input enrichment": "0.6 ratio"}
{"Oligonucleotide": "AAAGAGAAACUAAAGCAACUAAUAGAGAAGAGGAUUGGCAAAGAGAAUUUCAUAGAGAAACUAGGAUUUUAUUAGCAACAUGAGUUAGUAUUCCAGACGUCUCAGAAACCCCAGCCAAAC", "bound/input enrichment": "5 ratio"}
{"Oligonucleotide": "UGUGAACUGUCUCUUGAGAUCUAAAAACAAGAUGACUUUUCCUGGCACAUAUUCCAAAGCAUAGACUUUGUUGCCUGCUGCUUAUUGUCUAAUUUACAGGGAUAUUUAAUUUUGUAAGGU", "bound/input enrichment": "0.189 ratio"}
{"Oligonucleotide": "CAACAGAGUCUAGGAUGGGUUCAUUACAUGAUUCAUGAGCCAGAACCACAUAUUCUUCUCUUUAGACGACCUCUUCCAAAAGAACAACAAAAAUGAAGUGCAGCUGGGAUCAUCUAAUCU", "bound/input enrichment": "0.299 ratio"}
{"Oligonucleotide": "GAGCCCAGCCGGCAGUUUGUAAAGGACUCAAUUCGGCUGGUUAAAAGAUGCACCAAACCUGAUAGAAAAGAAUUCCAGAAGAUUGCCAUGGCUACAGCUAUAGGAUUUGCUAUAAUGGGA", "bound/input enrichment": "0.465 ratio"}
{"Oligonucleotide": "UGUGCAUAUGAUGCUUGAGAUGGUUUUUGCAAAAGCAGAAAUCGCUGCAAGGUAAUCCUAAUAGAGAAAAGUGGUAUUUUAAACCUUUGAAAGGAAUGGAUGUAACUGUACCUUGGUACA", "bound/input enrichment": "0.471 ratio"}
{"data": "Series 4", "target": "Histone acetyltransferase KAT6A, winged helix 1, GST fusion (KAT6A, Homo sapiens, UniProt Q92794, residues 1-85)", "method": "protein binding microarray", "molecule type": "double-stranded DNA, one strand shown", "medium": "in vitro", "concentration": "not given", "setting": "8-mer, flanks averaged, mean of 2 arrays, mostly near background", "reference": "not given", "reading": "higher = stronger binding", "Residues (chain)": "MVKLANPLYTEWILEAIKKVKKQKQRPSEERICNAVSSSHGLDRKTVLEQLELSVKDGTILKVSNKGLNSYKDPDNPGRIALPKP"}
{"Oligonucleotide": "AAGGTTGG", "E-score": -0.077}
{"Oligonucleotide": "AGTCTGAG", "E-score": -0.191}
{"Oligonucleotide": "ATGCCGTG", "E-score": 0.287}
{"Oligonucleotide": "ATTCAGCC", "E-score": 0.0249}
{"Oligonucleotide": "GATGTTCA", "E-score": -0.139}
{"Oligonucleotide": "ACGCGCTG", "E-score": 0.357}
{"Oligonucleotide": "AGTTCATC", "E-score": -0.2}
{"Oligonucleotide": "TAGCTAAA", "E-score": -0.125}
{"Oligonucleotide": "AGTCAAGC", "E-score": -0.049}
{"Oligonucleotide": "AGCGACCC", "E-score": 0.197}
{"Oligonucleotide": "CTTTTTGA", "E-score": -0.231}
{"Oligonucleotide": "ACCATTAT", "E-score": -0.0985}
{"Oligonucleotide": "ATCCGAGC", "E-score": 0.133}
{"Oligonucleotide": "TACTAATA", "E-score": -0.174}
{"Oligonucleotide": "AACTTAAA", "E-score": -0.194}
{"Oligonucleotide": "CGATCACC", "E-score": 0.0309}
{"Oligonucleotide": "CTGTGGCA", "E-score": -0.232}
{"data": "Series 5", "target": "CCNB3, cyclin fold, Cln2 fusion (human)", "method": "yeast growth competition, sequencing", "medium": "yeast", "setting": "weak parent motif", "reference": "not given", "reading": "higher = stronger binding", "starting sequence": "E2F7 docking peptide (human); SSAQRRLEIPSGG; partner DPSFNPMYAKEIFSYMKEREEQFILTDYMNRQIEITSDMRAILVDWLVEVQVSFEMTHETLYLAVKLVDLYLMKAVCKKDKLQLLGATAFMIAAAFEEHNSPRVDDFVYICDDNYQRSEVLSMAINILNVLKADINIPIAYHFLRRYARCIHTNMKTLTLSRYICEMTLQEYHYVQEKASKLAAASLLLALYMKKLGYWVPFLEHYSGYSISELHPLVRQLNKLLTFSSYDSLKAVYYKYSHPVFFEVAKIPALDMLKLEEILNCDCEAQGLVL"}
{"Change": "L7A", "normalised enrichment score": 0.446}
{"Change": "Q4A", "normalised enrichment score": 0.33}
{"Change": "I9F", "normalised enrichment score": 0.445}
{"Change": "G12A", "normalised enrichment score": -0.338}
{"Change": "E8A", "normalised enrichment score": 0.244}
{"Change": "I9A", "normalised enrichment score": 0.332}
{"Change": "R5K", "normalised enrichment score": -0.328}
{"Change": "S2A", "normalised enrichment score": -0.115}
{"Change": "R5K I9L", "normalised enrichment score": -0.217}
{"Change": "R5A L7A", "normalised enrichment score": 0.162}
{"data": "Series 6", "target": "Sal-like protein 4, full length isoform A (SALL4, Homo sapiens, UniProt Q9UJQ4, residues 1-1053)", "method": "universal PBM", "molecule type": "double-stranded DNA, one strand shown", "medium": "in vitro", "concentration": "600 nM", "setting": "8-mer, flanks averaged, mean of replicates", "reading": "higher = stronger binding", "chain of UniProt Q9UJQ4 (whole entry, looked up)": "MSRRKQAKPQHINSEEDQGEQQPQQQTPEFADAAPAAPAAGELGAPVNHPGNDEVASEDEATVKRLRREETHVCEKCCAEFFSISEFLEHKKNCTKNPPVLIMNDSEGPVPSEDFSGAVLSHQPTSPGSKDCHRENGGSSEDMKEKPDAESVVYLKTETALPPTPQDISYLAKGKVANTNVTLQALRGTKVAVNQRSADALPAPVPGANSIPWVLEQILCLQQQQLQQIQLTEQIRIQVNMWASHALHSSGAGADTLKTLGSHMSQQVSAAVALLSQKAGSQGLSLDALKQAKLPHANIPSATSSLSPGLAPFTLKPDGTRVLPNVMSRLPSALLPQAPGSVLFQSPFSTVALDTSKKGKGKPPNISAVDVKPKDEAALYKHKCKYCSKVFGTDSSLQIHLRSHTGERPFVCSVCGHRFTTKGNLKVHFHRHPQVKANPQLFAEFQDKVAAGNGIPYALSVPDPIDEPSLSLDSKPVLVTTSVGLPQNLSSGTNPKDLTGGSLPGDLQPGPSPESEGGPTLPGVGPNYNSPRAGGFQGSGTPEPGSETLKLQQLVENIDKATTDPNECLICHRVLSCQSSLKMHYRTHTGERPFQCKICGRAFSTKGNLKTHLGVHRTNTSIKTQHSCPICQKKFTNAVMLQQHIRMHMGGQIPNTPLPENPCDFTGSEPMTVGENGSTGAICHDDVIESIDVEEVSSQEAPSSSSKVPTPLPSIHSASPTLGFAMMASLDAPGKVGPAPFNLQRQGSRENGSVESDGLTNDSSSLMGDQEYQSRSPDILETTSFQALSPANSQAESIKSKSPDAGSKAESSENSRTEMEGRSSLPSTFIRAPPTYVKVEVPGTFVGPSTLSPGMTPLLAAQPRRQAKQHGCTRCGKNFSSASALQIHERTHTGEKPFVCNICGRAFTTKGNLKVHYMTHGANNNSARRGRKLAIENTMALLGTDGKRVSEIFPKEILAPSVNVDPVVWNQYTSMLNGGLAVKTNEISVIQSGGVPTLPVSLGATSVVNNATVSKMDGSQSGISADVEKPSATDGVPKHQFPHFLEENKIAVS"}
{"Oligonucleotide": "ATTATCTG", "E-score": 0.286}
{"Oligonucleotide": "CAGGCTAG", "E-score": -0.201}
{"Oligonucleotide": "ATTCTCAC", "E-score": 0.194}
{"Oligonucleotide": "CGACTTAC", "E-score": -0.136}
{"Oligonucleotide": "CGCGTCGC", "E-score": -0.27}
{"Oligonucleotide": "ACGTAACA", "E-score": 0.119}
{"Oligonucleotide": "GGGGAAGA", "E-score": -0.0918}
{"Oligonucleotide": "AAGGCTGT", "E-score": -0.173}
{"Oligonucleotide": "TAAAGTCA", "E-score": 0.205}
{"Oligonucleotide": "GGGGTAAC", "E-score": -0.172}
{"Oligonucleotide": "AGGATTAC", "E-score": 0.0696}
{"Oligonucleotide": "AAGTCTAG", "E-score": 0.0737}
{"Oligonucleotide": "CCGCCTAA", "E-score": -0.159}
{"Oligonucleotide": "CCCGCATA", "E-score": 0.0575}
{"Oligonucleotide": "AGCGCCAA", "E-score": -0.0116}
{"Oligonucleotide": "GCTCCATA", "E-score": -0.0926}
{"Oligonucleotide": "GTCTTCGA", "E-score": -0.00769}
{"Oligonucleotide": "CAAACACG", "E-score": 0.0319}
{"Oligonucleotide": "AGGATTAA", "E-score": 0.171}
{"Oligonucleotide": "CGTGGTGA", "E-score": -0.234}
{"Oligonucleotide": "CAATAGGC", "E-score": 0.0386}
{"Oligonucleotide": "ATTTAGCA", "E-score": 0.259}
{"Oligonucleotide": "AAATTTCT", "E-score": 0.248}
{"Oligonucleotide": "CATGGGGG", "E-score": -0.274}
{"Oligonucleotide": "GCTAGACA", "E-score": 0.0602}
